Measured values from different studies.
Lines come from different studies, so protocols differ.
T1: tetracycline RNA aptamer A55G; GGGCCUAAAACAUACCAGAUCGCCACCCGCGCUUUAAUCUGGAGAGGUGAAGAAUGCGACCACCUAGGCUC
T2: RNA riboswitch (Lactobacillus rhamnosus); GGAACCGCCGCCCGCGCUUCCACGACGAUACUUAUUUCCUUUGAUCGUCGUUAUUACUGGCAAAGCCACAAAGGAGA
T3: RNA riboswitch U13C; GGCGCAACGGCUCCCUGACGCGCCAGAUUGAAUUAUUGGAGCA
T4: RNA aptamer; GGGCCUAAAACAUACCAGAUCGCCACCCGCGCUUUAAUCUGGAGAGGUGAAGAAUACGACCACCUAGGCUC
T5: G-quadruplex DNA, monomeric G-quadruplex; GGTTAGGTTAGGTTAGG
T6: RNA riboswitch (Geobacter sulfurreducens); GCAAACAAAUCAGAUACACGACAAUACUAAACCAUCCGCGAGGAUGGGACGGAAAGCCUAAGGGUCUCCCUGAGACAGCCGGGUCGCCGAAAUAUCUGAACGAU
T7: RNA hairpin; CGCGAAAGCG
T8: RNA riboswitch U36C; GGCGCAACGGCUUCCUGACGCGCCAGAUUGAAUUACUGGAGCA
T9: G-quadruplex DNA (Homo sapiens); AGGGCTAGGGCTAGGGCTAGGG

SMILES | target | assay | conditions | Kd [nM]
CN(C)[C@@H]1C(=O)C(C(N)=O)=C(O)[C@@]2(O)C(=O)C3=C(O)c4c(O)cccc4[C@@](C)(O)[C@H]3C[C@@H]12 | T1, tetracycline RNA aptamer A55G | fluorescence titration | pH 7.5, 25 °C, MgCl2 10 mM | 1.69
NCc1c[nH]c2nc(N)[nH]c(=O)c12 | T2, RNA riboswitch (Lactobacillus rhamnosus) | ITC | pH 7.0, NaCl 0.10 M | 17.9
C[S+](CC[C@H](N)C(=O)O)C[C@H]1O[C@@H](n2cnc3c(N)ncnc32)[C@H](O)[C@@H]1O (some centres unmarked) | T3, RNA riboswitch U13C | ITC | KCl 50 mM, one-site model | 18000
Cc1c2c(c(O)c3c(O)cccc13)C(=O)[C@]1(O)C(O)=C(C(N)=O)C(=O)[C@@H](N(C)C)[C@@H]1C2 | T4, RNA aptamer | fluorescence titration | pH 7.5, 25 °C, MgCl2 10 mM | 3.5
Cc1ccc(Cn2cc3c(-c4ccc5c(c4)OCO5)nnc-3c3cc4c(cc32)OCO4)cc1 | T5, G-quadruplex DNA, monomeric G-quadruplex | fluorescence titration | NaCl 100 mM | 34500
Nc1nc2c(ncn2[C@@H]2O[C@@H]3COP(=O)(O)O[C@H]4[C@@H](O)[C@H](n5cnc6c(N)ncnc65)O[C@@H]4COP(=O)(O)O[C@H]3[C@H]2O)c(=O)[nH]1 | T6, RNA riboswitch (Geobacter sulfurreducens) | native gel shift | 4 °C, Mg2+ 10 mM, together with: 32P c-AMP-GMP | 1.1
C[n+]1ccc(Nc2ccc(NC(=O)c3ccc(Nc4cc[n+](C)c5ccc(N)cc45)cc3)cc2)cc1 | T7, RNA hairpin | fluorescence titration | 1000 nM, pH 7.0 | > 200000
Nc1nc2c(ncn2[C@@H]2O[C@@H]3COP(=O)(O)O[C@H]4[C@@H](N)[C@H](n5cnc6c(N)ncnc65)O[C@@H]4COP(=O)(O)O[C@H]3[C@H]2N)c(=O)[nH]1 | T6, RNA riboswitch (Geobacter sulfurreducens) | competition gel shift | Mg2+ 10 mM, together with: 32P c-AMP-GMP | 2500
Nc1ncnc2c1ncn2[C@@H]1O[C@H](CSCC[C@H](N)C(=O)O)[C@@H](O)[C@H]1O | T8, RNA riboswitch U36C | ITC | KCl 50 mM, one-site model | 13000
Nc1nc2c(ncn2[C@@H]2O[C@@H]3COP(=O)(O)O[C@H]4[C@@H](O)[C@H](n5cnc6c(N)ncnc65)O[C@@H]4COP(=O)(O)O[C@H]3[C@H]2N)c(=O)[nH]1 | T6, RNA riboswitch (Geobacter sulfurreducens) | competition gel shift | Mg2+ 10 mM, together with: 32P c-AMP-GMP | 9
C[n+]1ccc(/C=N/NC(=O)c2cncc(C(=O)N/N=C/c3cc[n+](C)c4ccccc34)n2)c2ccccc21 | T9, G-quadruplex DNA (Homo sapiens) | Cy5 fluorescence quenching titration | pH 7.2, KCl 100 mM | 19.1

Excerpt of the above:
SMILES | target | assay | conditions | Kd [nM]
Nc1nc2c(ncn2[C@@H]2O[C@@H]3COP(=O)(O)O[C@H]4[C@@H](O)[C@H](n5cnc6c(N)ncnc65)O[C@@H]4COP(=O)(O)O[C@H]3[C@H]2N)c(=O)[nH]1 | T6, RNA riboswitch (Geobacter sulfurreducens) | competition gel shift | Mg2+ 10 mM, together with: 32P c-AMP-GMP | 9
C[n+]1ccc(/C=N/NC(=O)c2cncc(C(=O)N/N=C/c3cc[n+](C)c4ccccc34)n2)c2ccccc21 | T9, G-quadruplex DNA (Homo sapiens) | Cy5 fluorescence quenching titration | pH 7.2, KCl 100 mM | 19.1
